Results from different studies.
Every numbered part comes from another study and shows a few of its results, in no order. Positions count from the first letter of the parent shown.

Series 1
Target: Ras GTPase-activating protein-binding protein 1, full length (G3BP1, Homo sapiens, UniProt Q13283)
Chain of UniProt Q13283 (whole entry, looked up): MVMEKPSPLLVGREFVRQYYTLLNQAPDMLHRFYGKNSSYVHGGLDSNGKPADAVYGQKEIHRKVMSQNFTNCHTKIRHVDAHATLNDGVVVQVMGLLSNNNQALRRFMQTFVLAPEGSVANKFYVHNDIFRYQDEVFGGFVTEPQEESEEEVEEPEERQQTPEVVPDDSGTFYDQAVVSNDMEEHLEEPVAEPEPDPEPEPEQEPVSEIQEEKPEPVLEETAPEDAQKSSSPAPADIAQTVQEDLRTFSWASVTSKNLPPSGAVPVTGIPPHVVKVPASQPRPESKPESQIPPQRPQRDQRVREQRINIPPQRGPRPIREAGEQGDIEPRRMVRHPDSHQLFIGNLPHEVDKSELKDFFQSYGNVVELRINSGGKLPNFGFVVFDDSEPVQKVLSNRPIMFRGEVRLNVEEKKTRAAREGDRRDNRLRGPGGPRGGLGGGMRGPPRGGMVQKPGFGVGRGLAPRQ
Method: RNA Bind-n-Seq
Form: RNA
Matrix: in vitro
Tested at: 200 nM
Setting: whole 134-nt RNA, ends assumed
With: 150 mM LiCl
Relative to: input library
Reading: higher = stronger binding
Quantity: log2 enrichment
Each molecule: 7-deaza-guanosine replaces G
Constant ends, left off below: GGGAGUUCUACAGUCCGACGAUC … UGGAAUUCUCGGGUGUCAAGG
CACAGACAACACGCACCCACACAGACACAGAGGGAAGGGGUUGGGAUGGGGACAGGGUGCACAGCAGGGCGGGGUAGGGCCCCAGCCCCU: 0.365
ACUAUGCAGGUGGGCAUCUUUGGGAAGUGGGGCAAGGGGGGGAUAGGGAGGGGGGUAACACUUUGGGAACAGGUGGUCCCAGGUCGUUUC: 0.162
CUGUGCUACACAUCGUAUGUACCGAAUCGGGGCCCCCCGGGCCCCCCGGGGCCCCCCGGGGAAAGUAUUAUGUUACGCCGUUCGGAUCUG: -1.09
UGGGAGGUGGAUUUUGUUUAUUUUUUUAGCUCUUUUCCAGGGGUGGGAAUUUUUUUUUAAUAUGUGUCAUGAAUAAAGUUGUUUUUGAAA: 0.367
CAAGUCCUGUGCUACACAUCGUAUGUACCGAAUCAAAUUUAAACCCAAACCCAAAAAAGUAUUAUGUUACGCCGUUCGGAUCUGCACUUC: 1.27
GCAGGAAGUAAAAACAAAUGGAAAUGCUUCGGAUAGUGGCAGGGGUGGGGGUUGCUAAGGAAAGGAUGGGAUGGGAGUGGGUAAAGAGUU: 0.126
CAAGUCCUGUGCUACACAUCGUAUGUACCGAAUCGGGAAAGGGAGGGUUUUUGGGAAAGUAUUAUGUUACGCCGUUCGGAUCUGCACUUC: -0.344
UUUCGGCUACCCCCAGUUCUUCUUUGCCAAAGCGUACACGUGAAGAGGAAGAGGAUAGCACCAUAGAAGCAUCAGACCAAGUCUCUGAUG: -1.75
UGUGCUACACAUCGUAUGUACCGAAUCGGGGUUUUUUUGGGUUUUUUUGGGGUUUUUUUGGGAAAGUAUUAUGUUACGCCGUUCGGAUCU: 1.57
UCAUGUGGAUGAAGCAGAAAAAGAAGCUCAGAAGAAGCCAGCUGAAUCUCAAAAAAUAGAGCGUGAAGAUGCCCUGGCUUUUAAUUCAGC: -2.21
UUGGAUGAAGAUGGCAAAGUCCUGACCCCGGAGGAGCUGCUCUACCGGGUAAGGGGGCCUCCUCUGCCAGACCCUAGAGACCUCUCUGGG: -0.939

Series 2
Target: ABI1, truncated, D143A, DHFR fusion (Arabidopsis thaliana)
Method: DHFR PCA, deep sequencing
Matrix: yeast
Setting: methotrexate growth selection, single substitutions
With: (+)-ABA 58 µM
Relative to: wild-type fitted maximum
Reading: higher = stronger binding
Quantity: relative binding score
Starting sequence: PYL1, truncated, DHFR fusion (Arabidopsis thaliana); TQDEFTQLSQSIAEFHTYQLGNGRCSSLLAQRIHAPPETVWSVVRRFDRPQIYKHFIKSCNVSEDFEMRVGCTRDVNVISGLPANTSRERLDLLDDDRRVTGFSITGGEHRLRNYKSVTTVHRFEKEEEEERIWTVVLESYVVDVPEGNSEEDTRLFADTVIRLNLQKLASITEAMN; partner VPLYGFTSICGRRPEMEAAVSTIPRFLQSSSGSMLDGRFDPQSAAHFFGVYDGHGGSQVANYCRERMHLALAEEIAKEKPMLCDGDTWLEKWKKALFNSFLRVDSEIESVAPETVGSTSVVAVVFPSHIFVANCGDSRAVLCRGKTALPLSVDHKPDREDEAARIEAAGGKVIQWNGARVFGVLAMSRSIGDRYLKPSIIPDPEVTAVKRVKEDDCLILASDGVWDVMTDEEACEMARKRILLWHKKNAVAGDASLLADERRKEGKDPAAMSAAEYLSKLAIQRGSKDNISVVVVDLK
R132K: 100%
F56D: -4.22%
V142H: 71.2%
R74Y: -3.92%
H16C: -18.2%
A158V: 93.2%
F66Q: 79.7%
R90H: 65.4%
S26Q: 67.9%
V76E: -7.27%
L166P: 32.1%
S150E: 49.6%
E67W: 70%
N114T: 17.6%
V100L: 67.4%
L93N: 52.9%

Series 3
Target: Histone acetyltransferase KAT6A, winged helix 1, GST fusion (KAT6A, Homo sapiens, UniProt Q92794, residues 1-85)
Method: protein binding microarray
Form: double-stranded DNA, one strand shown
Matrix: in vitro
Tested at: not given
Setting: 8-mer, flanks averaged, mean of 2 arrays, mostly near background
Relative to: not given
Reading: higher = stronger binding
Quantity: E-score
Residues (chain): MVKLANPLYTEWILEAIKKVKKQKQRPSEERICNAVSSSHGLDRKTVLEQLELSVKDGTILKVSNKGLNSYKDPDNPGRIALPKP
AGAACTAG: -0.161
CTCGTAGC: -0.0327
AATTCCCC: 0.0342
GAGCTTGA: -0.203
CGCAAAAC: 0.252
AAGATTTG: -0.0591
CGGGATCC: 0.364
ATGAATTC: -0.0754
CATGTCAG: -0.167
AGAACTTC: -0.148
ATCCTCAG: -0.152
ATCTGGCA: -0.203
AGGCTCAG: -0.189
CGGGTAAC: 0.309
ATACCGCC: 0.36
GACGCGTA: 0.343
ACTGGTCC: 0.0126
ACGTATAC: -0.0285

Series 4
Target: Prothrombin, mature alpha-thrombin (F2, Homo sapiens, UniProt P00734)
Method: aptamer microarray, sandwich
Form: DNA with 2'F-ANA
Matrix: in vitro
Tested at: 200 nM
Setting: whole 15-mer aptamer, many near background
With: Cy3 exosite-II aptamer, 400 nM
Reading: higher = stronger binding
Quantity: mean fluorescence intensity
Strand: GGTTGGTGTGGTTGG
2'F-ANA at 3 7 8 10 11 14: 496 a.u.
2'F-ANA at 1 3 5 6 8 10 11 13 14 15: 55.1 a.u.
2'F-ANA at 1 3 4 5 6 10 11 13 14: 53 a.u.
2'F-ANA at 1 2 5 6 9 12 13 15: 69.1 a.u.
2'F-ANA at 4 7 10 11 13 14 15: 67.5 a.u.
2'F-ANA at 1 2 4 5 11 13 14: 50.7 a.u.
2'F-ANA at 1 2 4 5 6 9 10 13 14: 50.6 a.u.
2'F-ANA at 4 5 6 8 9 10 13 15: 45.7 a.u.
2'F-ANA at 3 10 12 15: 703 a.u.
2'F-ANA at 1 4 5 6 7 9 14 15: 67.5 a.u.
2'F-ANA at 3 5 8 9 10 11 13 15: 56.4 a.u.
2'F-ANA at 4 5 10 12 15: 58.3 a.u.
2'F-ANA at 4 7 8 10 13 14 15: 88.7 a.u.
2'F-ANA at 1 4 5 6 9 12: 105 a.u.
2'F-ANA at 1 2 3 4 5 6 8 10 12 14 15: 54.8 a.u.
2'F-ANA at 1 2 3 4 7 14 15: 82 a.u.
2'F-ANA at 2 5 7 10 12 14 15: 48.9 a.u.
2'F-ANA at 1 4 6 12 14: 52.5 a.u.
2'F-ANA at 1 3 7 8: 420 a.u.
2'F-ANA at 1 2 3 4 5 7 8 10 14 15: 44.9 a.u.
2'F-ANA at 2 3 5 6 7 10 11 15: 53.1 a.u.

Series 5
Target: PABPC1L2, full length, GST fusion (mouse, UniProt A0ABA7IW68)
Method: RNAcompete
Form: RNA
Matrix: in vitro
Tested at: 20 nM
Setting: 7-mer, probes averaged, single round
Relative to: mean of 7-mers
Reading: higher = stronger binding
Quantity: 7-mer Z-score
Residues (chain): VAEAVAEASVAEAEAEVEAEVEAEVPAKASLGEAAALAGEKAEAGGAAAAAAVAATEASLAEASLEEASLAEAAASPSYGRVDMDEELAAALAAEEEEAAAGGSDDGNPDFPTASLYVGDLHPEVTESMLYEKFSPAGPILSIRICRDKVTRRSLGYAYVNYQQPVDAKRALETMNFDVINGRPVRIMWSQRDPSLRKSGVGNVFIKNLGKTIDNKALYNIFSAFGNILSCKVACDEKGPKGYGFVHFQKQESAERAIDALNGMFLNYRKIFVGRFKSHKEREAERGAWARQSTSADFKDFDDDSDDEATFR
UAUGUUC: -0.389
CGACUUG: -0.166
GGAACGU: -0.0337
AAAAUAG: 7.25
CCUACGU: -0.291
GUAUCAC: -0.213
UAAUCAG: -0.208
CGGCUUG: -0.271
GCUACGG: -0.05
GGCGAAA: 1.21
GACAUAU: -0.0844
UCCCCUA: -0.362
GUUUCUU: -0.418
GACGAGC: -0.0264
GGUACUC: -0.13
CACUCCA: -0.244
AUCCGUU: -0.318

Series 6
Target: Runt-related transcription factor 1, full length (RUNX1, Homo sapiens, UniProt Q01196-8, residues 1-480)
Method: protein-binding microarray
Form: hairpin DNA
Matrix: in vitro
Tested at: not given
Setting: whole hairpin DNA, median over replicate spots
Relative to: not given
Reading: higher = stronger binding
Quantity: median fluorescence
GAGGCCCAACCGCAACGGCCTCCTGGCCGTTGCGGTTGGGCCTCACACTC (5mC at 28): 5940 a.u.
GAGGCCTGTTGTGCTTGGCCTCCTGGCCAAGCACAACAGGCCTCACACTC (5mC at 14): 1600 a.u.
GAGGCCTGTCGTGGTTGGCCTCCTGGCCAACCACGACAGGCCTCACACTC (5mC at 10 34): 3180 a.u.
GAGGCCTGTCGTGGTTGGCCTCCTGGCCAACCACGACAGGCCTCACACTC (5mC at 34): 2030 a.u.
GAGGCCTGTCGCGGCGGGCCTCCTGGCCCGCCGCGACAGGCCTCACACTC (5mC at 15 29): 1890 a.u.
GAGGCCTGTTGCCGTTGGCCTCCTGGCCAACGGCAACAGGCCTCACACTC: 1640 a.u.
GAGGCCTCGTGCGGTTGGCCTCCTGGCCAACCGCACGAGGCCTCACACTC (5mC at 8): 2920 a.u.
GAGGCCTGTCGCGGCGGGCCTCCTGGCCCGCCGCGACAGGCCTCACACTC (5mC at 29): 2000 a.u.
GAGGCCTGCGGTGGTTGGCCTCCTGGCCAACCACCGCAGGCCTCACACTC (5mC at 35): 2150 a.u.
CTCAGTTCTGTGAGCTGGACTCCTGTCCAGCTCACAGAACTGAGACACTC: 1570 a.u.
CTCAGTTCTGTGGGCTCGACTCCTGTCGAGCCCACAGAACTGAGACACTC: 1960 a.u.
GAGGCCTGTTGCGCGTGGCCTCCTGGCCACGCGCAACAGGCCTCACACTC (5mC at 14 30): 1880 a.u.
GAGGCCCAACCGCAACGGCCTCCTGGCCGTTGCGGTTGGGCCTCACACTC (5mC at 16 28): 6780 a.u.
GAGGCCCAACTGCAACAGCCTCCTGGCTGTTGCAGTTGGGCCTCACACTC: 1670 a.u.
CTCAGTTCTGTGGCGTGGACTCCTGTCCACGCCACAGAACTGAGACACTC (5mC at 30): 1950 a.u.
GAGGCCTGTTGTGGTTGGCCTCCTGGCCAACCACAACAGGCCTCACACTC (5mC at 34): 3810 a.u.
GAGGCCTGTTGTGCGTGGCCTCCTGGCCACGCACAACAGGCCTCACACTC (5mC at 30): 1830 a.u.
CTCAGCTCTGTGGGCTGGACTCCTGTCCAGCCCACAGAGCTGAGACACTC (5mC at 6): 1910 a.u.
GAGGCCTGCGGCGGTTGGCCTCCTGGCCAACCGCCGCAGGCCTCACACTC (5mC at 9 35): 3000 a.u.
CTCAGTTCTGTTGGCTGGACTCCTGTCCAGCCAACAGAACTGAGACACTC: 1690 a.u.

Repeated from above (series 2):
V100L: 67.4%
S150E: 49.6%
R132K: 100%
F56D: -4.22%
V142H: 71.2%
L166P: 32.1%
H16C: -18.2%
S26Q: 67.9%
